Results pooled from the literature.
A part holds a random share of what one study measured. Changes are numbered by the printed parent chain.

Block 1
Target: Prothrombin, mature alpha-thrombin (F2, Homo sapiens, UniProt P00734)
Method: aptamer microarray, sandwich
Molecule type: DNA with 2'F-ANA
Matrix: in vitro
Concentration: 200 nM
Notes: whole 15-mer aptamer, many near background
Added: Cy3 exosite-II aptamer, 400 nM
Reading: higher = stronger binding
Endpoint: mean fluorescence intensity
Oligonucleotide: GGTTGGTGTGGTTGG
2'F-ANA at 1 2 3 7 13: 194 a.u.
2'F-ANA at 1 4 5 6 8 13 14: 45.7 a.u.
2'F-ANA at 1 5 8 9 10 11 12 14 15: 49.7 a.u.
2'F-ANA at 1 2 4 6 8 10 12 13: 78.1 a.u.
2'F-ANA at 2 5 8 12 14 15: 47.9 a.u.
2'F-ANA at 7 8 9 10 11 14: 110 a.u.
2'F-ANA at 2 3 4 5 7 8 12 13 14 15: 54.2 a.u.
2'F-ANA at 1 2 3 7 8 10 12: 131 a.u.
2'F-ANA at 2 5 7 8 9 10 13 15: 59 a.u.

Block 2
Target: CCND3, cyclin fold, Cln2 fusion (human)
Method: yeast growth competition, sequencing
Matrix: yeast
Notes: weak parent motif
Baseline: not given
Reading: higher = stronger binding
Endpoint: normalised enrichment score
Starting sequence: DBF4 docking peptide (human); DDIVSKLVFDFVE; partner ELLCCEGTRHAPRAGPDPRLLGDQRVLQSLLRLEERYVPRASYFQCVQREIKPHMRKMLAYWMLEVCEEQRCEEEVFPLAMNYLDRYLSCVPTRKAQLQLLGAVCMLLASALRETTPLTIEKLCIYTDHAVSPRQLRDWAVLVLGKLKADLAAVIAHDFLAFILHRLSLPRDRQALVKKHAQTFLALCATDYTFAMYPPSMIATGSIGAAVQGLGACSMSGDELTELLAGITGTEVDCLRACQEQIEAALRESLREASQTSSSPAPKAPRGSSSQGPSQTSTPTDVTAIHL
L7A: -0.295
D10A: -0.391
D1A: -0.0322
V8A: -0.0118
F9A: -0.246
D2A: -0.158

Block 3
Target: Interferon regulatory factor 7, full length, phosphomimetic (IRF7, Homo sapiens, UniProt Q92985, residues 1-503, S101K/S471D/S472D/S475D/S476D/S477D/S483D/S484D/S487D)
Method: protein-binding microarray
Molecule type: double-stranded DNA, one strand shown
Matrix: in vitro
Concentration: 250 nM
Notes: 60-bp whole probe
Added: salmon DNA 0.4 mg/ml
Baseline: random background probes
Reading: higher = stronger binding
Endpoint: log fluorescence
Shared flanks, not repeated: GCCTAGCAC … GTCTTGATTCGCTTGACGCTGCTG
Target sequence (chain): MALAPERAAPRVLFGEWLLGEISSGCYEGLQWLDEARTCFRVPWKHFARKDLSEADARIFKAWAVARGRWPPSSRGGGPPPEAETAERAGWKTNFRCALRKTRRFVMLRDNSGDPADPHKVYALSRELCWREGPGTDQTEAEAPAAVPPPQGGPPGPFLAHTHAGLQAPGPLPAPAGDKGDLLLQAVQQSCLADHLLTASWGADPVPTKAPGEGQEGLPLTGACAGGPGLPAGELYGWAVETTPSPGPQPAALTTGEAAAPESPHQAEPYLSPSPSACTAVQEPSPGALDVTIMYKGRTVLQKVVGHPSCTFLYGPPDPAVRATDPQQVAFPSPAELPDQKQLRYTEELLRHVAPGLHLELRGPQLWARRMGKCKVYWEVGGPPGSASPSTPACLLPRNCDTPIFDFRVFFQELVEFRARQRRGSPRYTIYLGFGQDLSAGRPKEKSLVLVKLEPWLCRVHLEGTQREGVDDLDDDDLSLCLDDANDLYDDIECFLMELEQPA
GACGGTATAGGGTTTCGGGACGTGCTA: 0.925 z-score
TCAGTTCTTAGCTTGGGACTGTGCTAG: 0.888 z-score
GACGGTTTCCTTCTCGTGACGTGCTAG: 2.26 z-score
GACGGACTGCTTTTCCTAACGTGCTAG: 0.324 z-score
TTAGAGCTCAGACTGGATTAGTGCTAG: -0.544 z-score
TTAGGTTTCGGGACTGGGTTGGTGCTA: 3.57 z-score
TCAGTCCTCCTGACTGGGACTGTGCTA: -0.195 z-score
TCATGTCCCTGTTTCTAACTGTGCTAG: 2.14 z-score
GACGGTCACCTTTTCCTGACGTGCTAG: 0.538 z-score

Other studies, line by line
PhoQ, residues 284 288 289 292 302 303 SMYGEC  fold induction (PhoP, residues 12 14 15 18 19 GHCSL (Escherichia coli, UniProt P23836); Sort-seq, measured: YFP reporter; E. coli; PhoQ-PhoP variant library, added: 10 µM Mg2+; baseline: high Mg2+ state, higher = stronger signaling): 4.42

For quick reference, copied from above (block 1):
2'F-ANA at 1 2 3 7 13: 194 a.u.
2'F-ANA at 1 2 4 6 8 10 12 13: 78.1 a.u.
2'F-ANA at 2 5 8 12 14 15: 47.9 a.u.
